Results gathered from unrelated publications.
Each line is one published result; not all experiments were run side by side. ± marks the error that the study gave.
KCNH2: Voltage-gated inwardly rectifying potassium channel KCNH2 (KCNH2, Homo sapiens, UniProt Q12809)
UniProt Q12809, sequence (whole entry, looked up): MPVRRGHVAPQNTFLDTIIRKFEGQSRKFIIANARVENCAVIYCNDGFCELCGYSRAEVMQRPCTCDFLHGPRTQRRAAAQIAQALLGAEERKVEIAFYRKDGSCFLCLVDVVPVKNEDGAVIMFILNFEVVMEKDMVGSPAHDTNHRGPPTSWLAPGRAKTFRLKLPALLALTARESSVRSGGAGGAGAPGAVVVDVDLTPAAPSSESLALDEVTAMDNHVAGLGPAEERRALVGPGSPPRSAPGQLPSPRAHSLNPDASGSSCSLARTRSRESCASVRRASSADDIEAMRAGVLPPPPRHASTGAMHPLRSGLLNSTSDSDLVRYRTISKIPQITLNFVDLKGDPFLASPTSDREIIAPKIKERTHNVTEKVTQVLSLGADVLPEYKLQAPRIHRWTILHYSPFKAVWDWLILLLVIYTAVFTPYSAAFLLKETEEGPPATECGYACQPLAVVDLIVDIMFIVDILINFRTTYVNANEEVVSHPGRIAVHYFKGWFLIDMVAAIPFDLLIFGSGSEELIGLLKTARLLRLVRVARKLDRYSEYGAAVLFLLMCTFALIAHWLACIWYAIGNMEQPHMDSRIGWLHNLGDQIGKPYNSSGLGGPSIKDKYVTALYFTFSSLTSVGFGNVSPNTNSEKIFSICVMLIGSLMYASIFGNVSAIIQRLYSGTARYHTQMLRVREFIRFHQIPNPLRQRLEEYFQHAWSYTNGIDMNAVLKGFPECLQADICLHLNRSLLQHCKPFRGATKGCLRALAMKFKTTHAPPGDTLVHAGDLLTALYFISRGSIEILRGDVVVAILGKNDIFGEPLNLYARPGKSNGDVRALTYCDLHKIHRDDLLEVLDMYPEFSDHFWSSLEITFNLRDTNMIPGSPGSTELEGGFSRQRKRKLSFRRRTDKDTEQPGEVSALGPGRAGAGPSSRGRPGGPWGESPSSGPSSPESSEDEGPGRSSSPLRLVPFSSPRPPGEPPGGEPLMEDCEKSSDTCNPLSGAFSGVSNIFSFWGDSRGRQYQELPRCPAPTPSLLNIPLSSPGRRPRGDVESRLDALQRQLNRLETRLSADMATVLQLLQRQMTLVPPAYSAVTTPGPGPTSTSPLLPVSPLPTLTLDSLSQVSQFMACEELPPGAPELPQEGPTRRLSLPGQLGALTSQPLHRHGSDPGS
CYP2D6: Cytochrome P450 2D6 (CYP2D6, Homo sapiens, UniProt P10635)
UniProt P10635, sequence (whole entry, looked up): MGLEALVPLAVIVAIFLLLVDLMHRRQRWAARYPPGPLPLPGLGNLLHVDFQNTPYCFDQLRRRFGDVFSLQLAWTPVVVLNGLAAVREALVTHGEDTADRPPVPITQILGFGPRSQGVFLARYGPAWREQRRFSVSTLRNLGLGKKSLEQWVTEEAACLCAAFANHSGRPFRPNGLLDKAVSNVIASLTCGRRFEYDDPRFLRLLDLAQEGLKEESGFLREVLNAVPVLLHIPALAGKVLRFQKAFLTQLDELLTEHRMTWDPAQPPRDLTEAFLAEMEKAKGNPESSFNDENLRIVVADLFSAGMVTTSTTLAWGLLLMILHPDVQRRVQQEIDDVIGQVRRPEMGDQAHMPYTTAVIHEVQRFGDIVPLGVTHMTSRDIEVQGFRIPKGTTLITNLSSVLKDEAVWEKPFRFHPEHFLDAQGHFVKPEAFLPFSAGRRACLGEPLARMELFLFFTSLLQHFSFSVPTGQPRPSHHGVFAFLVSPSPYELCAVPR
UniProt P78329, sequence (whole entry, looked up): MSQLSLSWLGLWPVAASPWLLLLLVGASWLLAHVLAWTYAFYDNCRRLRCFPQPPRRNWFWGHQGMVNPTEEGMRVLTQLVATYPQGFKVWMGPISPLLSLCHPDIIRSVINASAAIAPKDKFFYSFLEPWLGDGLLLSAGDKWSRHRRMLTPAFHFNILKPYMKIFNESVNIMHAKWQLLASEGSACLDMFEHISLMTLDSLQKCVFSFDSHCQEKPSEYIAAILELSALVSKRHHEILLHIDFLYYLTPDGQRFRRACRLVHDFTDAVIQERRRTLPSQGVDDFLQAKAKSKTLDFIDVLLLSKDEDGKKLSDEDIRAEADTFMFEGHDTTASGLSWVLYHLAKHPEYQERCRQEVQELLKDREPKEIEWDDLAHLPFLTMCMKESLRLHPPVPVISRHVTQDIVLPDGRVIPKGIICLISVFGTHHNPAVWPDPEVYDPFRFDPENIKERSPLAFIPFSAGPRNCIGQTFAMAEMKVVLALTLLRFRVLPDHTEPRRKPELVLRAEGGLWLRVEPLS
UniProt P00760, sequence (whole entry, looked up): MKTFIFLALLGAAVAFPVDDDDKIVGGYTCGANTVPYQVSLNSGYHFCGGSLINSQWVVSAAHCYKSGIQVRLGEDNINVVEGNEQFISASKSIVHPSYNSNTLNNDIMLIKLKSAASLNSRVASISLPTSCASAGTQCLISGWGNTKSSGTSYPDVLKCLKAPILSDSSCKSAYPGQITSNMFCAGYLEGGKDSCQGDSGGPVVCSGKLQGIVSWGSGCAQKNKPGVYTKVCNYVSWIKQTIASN
UniProt P00729, sequence (whole entry, looked up): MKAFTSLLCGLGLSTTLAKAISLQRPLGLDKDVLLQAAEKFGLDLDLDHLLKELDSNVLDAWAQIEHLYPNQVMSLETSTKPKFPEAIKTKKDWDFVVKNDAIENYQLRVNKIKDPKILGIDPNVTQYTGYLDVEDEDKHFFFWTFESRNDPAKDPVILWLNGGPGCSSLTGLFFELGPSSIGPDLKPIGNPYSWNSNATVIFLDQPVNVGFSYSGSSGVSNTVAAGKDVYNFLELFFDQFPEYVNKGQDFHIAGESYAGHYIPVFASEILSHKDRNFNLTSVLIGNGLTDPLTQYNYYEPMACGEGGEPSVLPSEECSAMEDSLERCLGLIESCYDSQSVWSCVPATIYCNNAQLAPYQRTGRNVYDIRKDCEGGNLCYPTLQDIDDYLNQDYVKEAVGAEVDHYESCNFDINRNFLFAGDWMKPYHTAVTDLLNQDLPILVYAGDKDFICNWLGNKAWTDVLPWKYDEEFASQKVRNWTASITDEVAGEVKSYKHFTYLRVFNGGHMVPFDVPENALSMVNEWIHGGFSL
UniProt P02769, sequence (whole entry, looked up): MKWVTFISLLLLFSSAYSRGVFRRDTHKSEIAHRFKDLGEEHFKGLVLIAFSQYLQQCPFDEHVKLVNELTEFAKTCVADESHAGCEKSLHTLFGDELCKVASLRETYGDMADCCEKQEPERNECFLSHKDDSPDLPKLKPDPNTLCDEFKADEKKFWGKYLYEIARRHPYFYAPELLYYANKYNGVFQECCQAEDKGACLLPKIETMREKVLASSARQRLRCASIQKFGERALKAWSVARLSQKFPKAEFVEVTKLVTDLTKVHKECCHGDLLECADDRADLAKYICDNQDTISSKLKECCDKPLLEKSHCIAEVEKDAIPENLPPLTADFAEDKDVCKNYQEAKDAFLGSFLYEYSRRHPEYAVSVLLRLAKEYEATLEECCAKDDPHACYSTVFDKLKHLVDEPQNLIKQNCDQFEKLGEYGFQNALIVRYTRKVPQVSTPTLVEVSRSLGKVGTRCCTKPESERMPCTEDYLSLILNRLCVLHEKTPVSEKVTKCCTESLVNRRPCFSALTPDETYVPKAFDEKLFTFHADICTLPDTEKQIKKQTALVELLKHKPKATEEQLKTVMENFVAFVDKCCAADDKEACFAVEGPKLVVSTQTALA

| Structure (SMILES) | target or system | test | system | conditions | scale | endpoint | result |
| --- | --- | --- | --- | --- | --- | --- | --- |
| C/C(=N\OCCCN1CCCCC1)c1ccc(C(F)(F)F)cc1 | KCNH2 | ion current, antagonist, automated patch clamp | – | 10 µM | – | inhibition | 76.2% |
| CCN(CC)CCOc1ccc(-c2nnn(Cc3ccc(OC)cc3)c2N)cc1 | SLC22A8 (Homo sapiens, UniProt Q8TCC7) | transporter uptake, inhibitor | – | – | – | IC50 | > 100 µM |
| CCCCCCCCCCCC(=O)C(C)C(=O)N1CCC[C@H]1C(=O)NC(C)(C)C(=O)NC(C)(C)C(=O)NC(C)(C)C(=O)N[C@](C)(CC)C(=O)NCCC(=O)N[C@@H](C)C(=O)N[C@](C)(CC)C(=O)N[C@@H](C)C(=O)N[C@@H](CC(C)C)C(=O)N[C@](C)(CC)C(=O)NCCC(=O)N[C@@H](C)C(=O)N[C@](C)(CC)C(=O)NCCC(=O)N[C@@H](C)C(=O)NC(C)(C)C(=O)NC(C)(C)C(=O)NC(C)(C)C(=O)N[C@@H](C)C(=O)N[C@@H](CC(=O)O)C(=O)O (some centres unmarked) | human neutrophil elastase | LC-MS | – | 40 µM, 60 min, pH 7.5, 37 °C | reference: 0 h | remaining intact peptide | 64.7% |
| CNC(=O)C1CCCN(C(=O)C2CC3CCC2N3C(=O)[C@@H]2C[C@@H](O)CN2C(=O)NCc2cccc(Cl)c2F)C1 (mixture of isomers) | CYP3A4 (human) | inhibitor, time-dependent inhibition | – | 16.7 µM, preincubated without NADPH, together with: midazolam substrate | reference: negative control | remaining activity | 105% |
| C[C@@H]1NC(=O)[C@H](CCCNC(=N)N)NC(=O)[C@H](Cc2ccc3ccccc3c2)NC(=O)[C@H]2CCCCN2C(=O)[C@@H]([C@H](C)O)NC(=O)[C@H](Cc2ccc(F)cc2)NC(=O)[C@@H](Cc2ccc(F)cc2)NC(=O)c2cc3cc(c2)C(=O)NC[C@H](NC(=O)[C@@H](Cc2ccccc2)NC1=O)C(=O)N[C@@H](Cc1ccccc1)C(=O)N[C@@H](Cc1ccc2ccccc2c1)C(=O)N[C@@H](CCCNC(=N)N)C(=O)N[C@@H](CCCNC(=N)N)C(=O)N[C@@H](CCCNC(=N)N)C(=O)N[C@@H](CCCNC(=N)N)C(=O)N[C@H](C(=O)N[C@@H](CCCCN)C(N)=O)CNC3=O | Albumin (ALB, Bos taurus, UniProt P02769) | binding | – | – | – | Kd | ~20 µM |
| O=C1NC2(CC2)COc2ncc(F)cc2[C@H]2COCCN2c2ccn3ncc1c3n2 | – | – | Sprague-Dawley rat, male, testes | oral, 5 mg/kg/day, 4 weeks, end of treatment | – | organ-to-body weight ratio | 0.757 ± 0.061% |
| CC[C@H](C)[C@@H]1NC(=O)[C@H](CC(C)C)NC(=O)[C@@H](NC(=O)[C@H](CCCNC(=N)N)NC(=O)[C@@H](NC(=O)CNC(=O)[C@@H]2CCCN2C(=O)[C@@H]2CCC(=O)NCC(=O)N[C@@H](CO)C(=O)N[C@@H](CCCNC(=N)N)C(=O)NCC(=O)N[C@@H](Cc3c[nH]c4ccccc34)C(=O)NCC(=O)N[C@@H](Cc3ccccc3)C(=O)N2)C(C)C)CSSC[C@@H](C(=O)N[C@@H](CC(=O)O)C(=O)O)NC(=O)[C@H](Cc2c[nH]c3ccccc23)NC1=O | Carboxypeptidase Y (Saccharomyces cerevisiae, UniProt P00729) | substrate, LC-MS | – | 20 h, room temperature | – | proteolytic stability | stable |
| CN[C@@H]1[C@H](O)[C@H](NC)[C@H]2O[C@]3(O)[C@H](O[C@@H]2[C@H]1O)O[C@H](C)C[C@H]3NC(=O)Cc1ccc(Cl)cn1 | CYP2D6 | – | – | 10 µM | – | inhibition | 5% |
| CC(=O)NCCCC[C@@H]1NC(=O)[C@H](Cc2c[nH]c3c(C)cccc23)NC(=O)[C@H]([C@@H](C)O)NC(=O)[C@H](CC(N)=O)NC(=O)[C@@H](NC(C)=O)C(C)(C)SSC(C)(C)[C@@H](C(=O)N[C@@H](Cc2ccc(OCCN)cc2)C(=O)N[C@@H](Cc2ccc3ccccc3c2)C(=O)NC2(C(=O)N[C@@H](CCC(=O)O)C(=O)N[C@@H](CC(N)=O)C(=O)N[C@@H](Cc3cccnc3)C(=O)N(C)CC(N)=O)CCOCC2)NC1=O | human alpha-1-acid glycoprotein 0.14% | equilibrium dialysis | – | 0.1 µM | – | fraction unbound | 91.5 ± 0.7% |
| CC(C)C[C@H](NC(=O)[C@H](CC(C)C)NC(=O)[C@H](CCCCN)NC(=O)[C@H](Cc1ccccc1)NC(=O)[C@@H](NC(=O)[C@H](CCCNC(=N)N)NC(=O)[C@@H](N)CCCCN)C(C)C)C(=O)N[C@@H](CCCCN)C(=O)N[C@@H](CCCNC(=N)N)C(=O)N[C@@H](Cc1ccc(O)cc1)C(=O)N[C@@H](Cc1c[nH]c2ccccc12)C(=O)N[C@@H](CCCNC(=N)N)C(=O)N[C@@H](CCC(N)=O)C(=O)N[C@@H](CC(C)C)C(=O)N[C@@H](CCCCN)C(=O)N[C@@H](CCCCN)C(=O)N1CCC[C@H]1C(=O)N[C@H](C(=O)N[C@@H](CCCNC(=N)N)C(=O)NCCOCCOCC(=O)O)C(C)C | Serine protease 1 (PRSS1, Bos taurus, UniProt P00760) | HPLC | – | 1 mg/mL, 30 min, 37 °C, together with: enzyme to peptide 50:1 | reference: untreated peptide | degradation | 14 to 17% |
| CC(C)C[C@H](NC(=O)[C@H](C)NC(=O)CNC(=O)CCCCCNC(=O)C1CC2C=CC1C2)C(=O)N[C@H](C(=O)N1CCC[C@H]1C(=O)N[C@@H](CCCNC(=N)N)C(=O)NCC(=O)N[C@@H](C)C(=O)N[C@@H](CC(=O)O)C(=O)N[C@@H](CO)C(=O)NCC(=O)N[C@@H](CO)C(=O)NCC(N)=O)[C@@H](C)O (some centres unmarked) | α-chymotrypsin | substrate, HPLC | DPBS | 200 µM, 50 min, 37 °C, together with: chymotrypsin 1.0 µM | – | cleavage | 56% |
| N#Cc1cccc2c1C1(CCN(C(=O)c3cnc4[nH]ncc4c3)CC1)C(=O)N2CC(=O)NCC(F)(F)F | CYP2D6 | enzyme activity, inhibitor | – | – | – | IC50 | 40 µM |
| Cc1cc(-c2ccc3ccccc3c2)nnc1NCCN1CCN(C)CC1 | Cytochrome P450 4F2 (Homo sapiens, UniProt P78329) | substrate | recombinant enzyme | 1000 nM, 30 min | – | remaining parent compound | 89.8% |
| CCO[C@H]1[C@H](O)[C@@H](N)[C@@H](O[C@H]2[C@H](O[C@@H]3O[C@H](CO)[C@@H](O[C@H]4O[C@@H](CN)[C@@H](O)[C@H](O)[C@H]4N)[C@H]3O)[C@@H](O)[C@H](N)C[C@@H]2N)O[C@@H]1CO | KCNH2 | ligand displacement, radioligand | – | 10 µM | – | binding vs control | -12% |

For quick reference, copied from above:
| Structure (SMILES) | target or system | test | system | conditions | scale | endpoint | result |
| --- | --- | --- | --- | --- | --- | --- | --- |
| CC(C)C[C@H](NC(=O)[C@H](CC(C)C)NC(=O)[C@H](CCCCN)NC(=O)[C@H](Cc1ccccc1)NC(=O)[C@@H](NC(=O)[C@H](CCCNC(=N)N)NC(=O)[C@@H](N)CCCCN)C(C)C)C(=O)N[C@@H](CCCCN)C(=O)N[C@@H](CCCNC(=N)N)C(=O)N[C@@H](Cc1ccc(O)cc1)C(=O)N[C@@H](Cc1c[nH]c2ccccc12)C(=O)N[C@@H](CCCNC(=N)N)C(=O)N[C@@H](CCC(N)=O)C(=O)N[C@@H](CC(C)C)C(=O)N[C@@H](CCCCN)C(=O)N[C@@H](CCCCN)C(=O)N1CCC[C@H]1C(=O)N[C@H](C(=O)N[C@@H](CCCNC(=N)N)C(=O)NCCOCCOCC(=O)O)C(C)C | Serine protease 1 (PRSS1, Bos taurus, UniProt P00760) | HPLC | – | 1 mg/mL, 30 min, 37 °C, together with: enzyme to peptide 50:1 | reference: untreated peptide | degradation | 14 to 17% |
